# Experimental data of several laboratories.
# Numbered parts are unrelated; each lists some results of a single study.
# UniProt Q9NRP7, sequence (whole entry, looked up): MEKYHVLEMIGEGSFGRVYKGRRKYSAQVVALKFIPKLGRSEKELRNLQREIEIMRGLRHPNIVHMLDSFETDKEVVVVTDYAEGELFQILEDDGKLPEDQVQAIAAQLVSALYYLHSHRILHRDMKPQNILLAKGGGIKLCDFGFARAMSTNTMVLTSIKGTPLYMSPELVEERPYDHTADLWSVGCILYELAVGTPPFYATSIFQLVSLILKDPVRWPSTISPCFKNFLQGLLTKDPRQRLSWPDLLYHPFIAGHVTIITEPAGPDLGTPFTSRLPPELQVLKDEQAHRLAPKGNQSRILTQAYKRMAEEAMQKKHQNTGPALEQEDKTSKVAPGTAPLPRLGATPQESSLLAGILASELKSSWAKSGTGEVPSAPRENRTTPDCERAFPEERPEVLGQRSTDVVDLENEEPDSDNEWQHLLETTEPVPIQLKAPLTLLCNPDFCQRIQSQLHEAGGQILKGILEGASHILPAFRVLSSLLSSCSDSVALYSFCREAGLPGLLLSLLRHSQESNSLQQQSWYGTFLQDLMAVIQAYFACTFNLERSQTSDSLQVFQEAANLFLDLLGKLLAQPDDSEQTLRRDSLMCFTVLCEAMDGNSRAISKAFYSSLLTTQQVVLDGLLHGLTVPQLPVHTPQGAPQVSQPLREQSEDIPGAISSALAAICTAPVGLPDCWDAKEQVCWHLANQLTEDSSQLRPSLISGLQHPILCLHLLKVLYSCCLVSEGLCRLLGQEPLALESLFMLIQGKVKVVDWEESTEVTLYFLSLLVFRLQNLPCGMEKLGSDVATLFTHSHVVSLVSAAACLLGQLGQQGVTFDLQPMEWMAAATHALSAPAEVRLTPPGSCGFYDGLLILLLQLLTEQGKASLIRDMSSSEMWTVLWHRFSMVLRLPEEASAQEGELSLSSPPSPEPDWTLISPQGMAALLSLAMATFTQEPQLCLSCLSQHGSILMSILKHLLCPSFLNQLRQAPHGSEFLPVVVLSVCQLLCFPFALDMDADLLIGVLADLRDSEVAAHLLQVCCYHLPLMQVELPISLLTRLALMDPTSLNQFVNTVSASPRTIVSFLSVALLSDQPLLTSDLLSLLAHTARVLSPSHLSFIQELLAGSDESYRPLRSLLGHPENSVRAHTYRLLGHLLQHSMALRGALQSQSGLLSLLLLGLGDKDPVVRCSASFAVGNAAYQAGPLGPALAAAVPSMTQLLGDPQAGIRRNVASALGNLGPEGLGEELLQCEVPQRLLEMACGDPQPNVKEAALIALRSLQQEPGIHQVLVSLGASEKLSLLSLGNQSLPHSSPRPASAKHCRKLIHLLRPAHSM

# Study 1
# Target: POU, POU domain (Salpingoeca helianthica)
# Method: Spec-seq
# Molecule type: double-stranded DNA, one strand shown
# Matrix: in vitro
# Concentration: not given
# Setting: whole probe, mean of replicates
# Relative to: not given
# Direction: lower = stronger binding
# Shared flanks, not repeated: GAGTCGTCTCGTCAGCAC … CCGTAGAGCACTCAGGTC
# Residues (chain): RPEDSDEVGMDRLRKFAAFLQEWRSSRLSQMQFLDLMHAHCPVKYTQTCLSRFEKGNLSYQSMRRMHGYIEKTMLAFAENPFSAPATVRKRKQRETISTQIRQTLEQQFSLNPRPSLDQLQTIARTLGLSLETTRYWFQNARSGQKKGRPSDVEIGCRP
Strand,relative binding energy [ln ratio]
ATACTTAT,0.714
ATCATTAT,-0.4
ATGCGCGG,1.41
ATCTGTAT,1.08
TGTCTAAT,0.797
ATGCAGTT,1.4
ATGCAGGA,1.1
ATGTAAAT,0.87

# Study 2
# Target: RING finger protein unkempt homolog, zinc fingers 1-6, GST-SBP tag (UNK, Homo sapiens, UniProt Q9C0B0, residues 30-357)
# UniProt Q9C0B0, sequence (30-357, looked up): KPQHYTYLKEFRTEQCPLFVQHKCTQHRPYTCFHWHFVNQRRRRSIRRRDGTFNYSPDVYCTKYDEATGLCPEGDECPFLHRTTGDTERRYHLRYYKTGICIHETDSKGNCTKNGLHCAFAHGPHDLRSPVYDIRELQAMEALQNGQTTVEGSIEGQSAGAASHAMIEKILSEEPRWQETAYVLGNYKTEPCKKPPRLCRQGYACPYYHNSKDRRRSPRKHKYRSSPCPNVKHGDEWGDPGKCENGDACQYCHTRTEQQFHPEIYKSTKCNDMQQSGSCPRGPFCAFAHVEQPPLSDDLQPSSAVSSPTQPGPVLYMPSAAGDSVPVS
# Method: RNA Bind-n-Seq
# Molecule type: RNA
# Matrix: in vitro
# Concentration: not given
# Setting: RNA with constant flanks, human and mouse sites, ends assumed
# Relative to: input RNA pool
# Direction: higher = stronger binding
# Shared flanks, not repeated: GGGAGUUCUACAGUCCGACGAUC … CAACAGAGGAUUGAGCAUCA
Strand,bound/input enrichment [ratio]
GCUGUUAAGAUGCUCAGAAAUGCAAGAAAGAAGUCACUGUUUCAGUAAAAUCUCUAGUAAUGAUAAAAAAUUAAAUUAGUCUUCCCAAGCAUCAUGGAUCAUUUUGGACAAGAUUUUCUA,5.36
UCAUUUGCUCCUGAAUCUUGCUCAUUCUUUUUCUCUAGGUCUUUUUCUUUUGAGUUUUCCUAGCUAUUCAACUUUCCGUUGUGUCCUUUUUUGCUGUCUCUGUGUUCCUCUCAUUCUCAA,2.05
ACGGUCACCAUUCUUGUCAGCCUGGCCCUUGCCUUCCUUGCUUGCAUUGUGUUCCUGGUGGUUUACAAAGCCUUUACCUAUGACCACAGCUGUCCUGAAGGAUUUGUCUACAAGCACAAG,0.0615
CGCUCGCUGGCCUUUAGGAAGGAGCUGCAGGAUGGGGGCCUCCGAAGCAGCGGCUUCUUCAGCUCCUUCGAGGAGAGCGACAUUGAGAACCACCUCAUUAGCGGACACAAUAUUGUGCAG,0.23
GAGGUGGUGCCUAUUCAUCAGCAGGACAUUCCUGUUGAUAAUCCCAUCGAGAGCAAUAAUAUCUUCCUAGUGGCCCCAUUGAUCAUCUGCCACGUGAUUGACAAGCGUAGCCCCCUGUAU,0.139
CCUGAGAUAUGCACCCUGUGUCCGGGAGGUAUGCACAAUUUGUCCAGAGUGGCUGCUUACUGUGAGGAUACAUCGAAGCUAAUGCAGGCCCGAUGCUGCCUGAAUCAGAAGGGCACCAUC,0.117
AAUUAUGAAAGCAUAAAACAUGAGCCUGAAAACCCCCCACCAUAUGAAGAGGCCAUGAGUGUAUCACUAAAAAAAGUAUCAGGAAUAAAGGAAGAAAUUAAAGAGCCUGAAAAUAUUAAU,0.454
UGUGAAAUUCACCAUGGGCAGACUGGAGGAAUAUAUGUCCAUGAAAAAGGAAGAGGACAAUUCAUAGAGAAUAAAAUCUAUGCAAACAACUUUGCAGGUGUAUGGAUUACCUCAAAUAGU,0.434

# Study 3
# Target: Fragile X messenger ribonucleoprotein 1, C-terminal low-complexity region (Fmr1, Mus musculus, UniProt P35922)
# Method: RNA Bind-n-Seq
# Molecule type: RNA
# Matrix: in vitro
# Concentration: 200 nM
# Setting: whole 134-nt RNA, ends assumed
# Together with: 150 mM KCl
# Relative to: input library
# Direction: higher = stronger binding
# Shared flanks, not repeated: GGGAGUUCUACAGUCCGACGAUC … UGGAAUUCUCGGGUGUCAAGG
Strand,log2 enrichment
AAGUCCUGUGCUACACAUCGUAUGUACCGAAUCGGGGAAAGGGAAAGGGGAAAGGGGAAAGUAUUAUGUUACGCCGUUCGGAUCUGCACU,0.281
CCUGUGCUACACAUCGUAUGUACCGAAUCGGGGCCCCCCCGGGCCCCCCCGGCCCCCCCGGAAAGUAUUAUGUUACGCCGUUCGGAUCUG,-0.624
UUGUCUUCUGAGAUGUUGGGCCCCUCUUGGGAUGGAGAUGAAGCAGAAUCCACUGGUGAAAUCAUUAGACUUGGAGACACAGCACACACC,0.238
CACAAACAACACGCACCCACACAGACACAGAGGGAAGGGGUUGGGAUGGGGACAGGGUGCACAGCAGGGCGGGGUAGGACCCCAGCCCCU,1.28
AGUCCUGUGCUACACAUCGUAUGUACCGAAUCGGAAAAAAGGAAAAAAGGAAAAAAGGAAAGUAUUAUGUUACGCCGUUCGGAUCUGCAC,-0.947
UGGCCCUGGUGGCAUGCGGGGAGGAAGAGGUGGCCUCAUGGAUAGUGGUGGUCCCGGUGGAAUGUUCAGAGGUGGCCGUGGUGGAGACAG,0.0985
AGUCCUGUGCUACACAUCGUAUGUACCGAAUCGGGAAAGGGAAAGGGAAAAAAAGGGAAAGUAUUAUGUUACGCCGUUCGGAUCUGCACU,-0.154
CACAGACAACACGCAAACACACAGACACAGAGGGAAGGGGUUGGGAUGGGGACAGGGUGCACAGCAGGGCGGGGUAGGACCCCAGCCCCU,1.22

# Further values, each from its own experiment
SMILES,target,read-out,method,concentration,quantity,result
CS(=O)(=O)c1cc(C2(NC(=O)c3cncc4c3cnn4-c3ccc(F)cc3)CC2)ccn1,"Serine/threonine-protein kinase 36 (STK36, Homo sapiens, UniProt Q9NRP7)",cell-free assay,competition with immobilised ligand,1 µM,remaining binding,100%

# A few entries again (study 1):
Strand,relative binding energy [ln ratio]
ATCATTAT,-0.4
ATGCGCGG,1.41
ATCTGTAT,1.08
